{"data": "Measured values pooled from the literature", "note": "Each numbered part is a random draw from the data of one study; scales do not carry over between parts. Values joined by “and” are separate records of one study, mostly repeats; a detail may differ.", "chain of UniProt Q96NX5 (whole entry, looked up)": "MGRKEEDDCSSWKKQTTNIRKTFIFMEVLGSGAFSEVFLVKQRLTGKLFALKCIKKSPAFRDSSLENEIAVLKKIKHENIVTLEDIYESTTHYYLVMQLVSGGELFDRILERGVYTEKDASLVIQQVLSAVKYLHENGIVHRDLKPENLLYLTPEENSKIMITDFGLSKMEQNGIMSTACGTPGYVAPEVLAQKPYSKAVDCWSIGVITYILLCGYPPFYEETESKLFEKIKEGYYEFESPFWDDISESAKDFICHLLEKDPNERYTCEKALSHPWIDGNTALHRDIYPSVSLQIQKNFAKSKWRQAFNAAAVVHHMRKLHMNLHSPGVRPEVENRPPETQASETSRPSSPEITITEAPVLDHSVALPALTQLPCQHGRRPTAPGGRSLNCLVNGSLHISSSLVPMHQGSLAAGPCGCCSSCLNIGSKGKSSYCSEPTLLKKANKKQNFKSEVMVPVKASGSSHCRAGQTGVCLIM", "chain of UniProt Q14680 (whole entry, looked up)": "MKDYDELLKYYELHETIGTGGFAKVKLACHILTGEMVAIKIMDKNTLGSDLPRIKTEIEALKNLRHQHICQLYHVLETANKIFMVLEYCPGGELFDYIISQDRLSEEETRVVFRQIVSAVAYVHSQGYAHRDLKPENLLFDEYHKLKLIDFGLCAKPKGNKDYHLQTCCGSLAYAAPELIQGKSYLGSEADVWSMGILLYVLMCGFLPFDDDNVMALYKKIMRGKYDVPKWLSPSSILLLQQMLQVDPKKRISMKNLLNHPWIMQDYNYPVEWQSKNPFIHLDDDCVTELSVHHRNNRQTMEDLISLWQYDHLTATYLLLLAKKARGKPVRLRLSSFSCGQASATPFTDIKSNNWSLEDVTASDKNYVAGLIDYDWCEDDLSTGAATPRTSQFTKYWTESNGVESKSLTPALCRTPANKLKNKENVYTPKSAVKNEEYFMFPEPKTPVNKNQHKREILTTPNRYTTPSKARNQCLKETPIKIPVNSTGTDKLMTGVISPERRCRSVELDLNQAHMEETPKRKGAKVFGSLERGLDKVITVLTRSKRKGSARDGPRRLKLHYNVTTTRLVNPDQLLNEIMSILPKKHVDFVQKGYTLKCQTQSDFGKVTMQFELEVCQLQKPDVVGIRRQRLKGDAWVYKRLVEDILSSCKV", "chain of UniProt Q09013 (whole entry, looked up)": "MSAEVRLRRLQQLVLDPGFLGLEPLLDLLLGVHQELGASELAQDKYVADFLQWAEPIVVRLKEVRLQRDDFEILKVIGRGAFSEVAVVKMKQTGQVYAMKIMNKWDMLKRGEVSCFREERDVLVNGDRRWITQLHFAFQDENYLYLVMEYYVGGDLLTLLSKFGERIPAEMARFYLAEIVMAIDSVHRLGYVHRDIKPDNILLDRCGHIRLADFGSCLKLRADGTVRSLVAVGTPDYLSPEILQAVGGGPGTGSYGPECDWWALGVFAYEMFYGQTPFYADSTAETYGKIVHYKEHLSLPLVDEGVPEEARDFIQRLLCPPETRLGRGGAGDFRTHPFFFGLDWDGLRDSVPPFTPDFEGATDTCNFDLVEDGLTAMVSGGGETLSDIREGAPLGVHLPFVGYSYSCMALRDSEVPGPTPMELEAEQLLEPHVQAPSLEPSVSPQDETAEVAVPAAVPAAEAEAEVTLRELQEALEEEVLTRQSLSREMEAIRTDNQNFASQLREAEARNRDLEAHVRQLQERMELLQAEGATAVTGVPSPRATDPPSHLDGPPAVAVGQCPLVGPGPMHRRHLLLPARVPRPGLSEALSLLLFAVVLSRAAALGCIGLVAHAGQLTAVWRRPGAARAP", "chain of UniProt Q9UQB9 (whole entry, looked up)": "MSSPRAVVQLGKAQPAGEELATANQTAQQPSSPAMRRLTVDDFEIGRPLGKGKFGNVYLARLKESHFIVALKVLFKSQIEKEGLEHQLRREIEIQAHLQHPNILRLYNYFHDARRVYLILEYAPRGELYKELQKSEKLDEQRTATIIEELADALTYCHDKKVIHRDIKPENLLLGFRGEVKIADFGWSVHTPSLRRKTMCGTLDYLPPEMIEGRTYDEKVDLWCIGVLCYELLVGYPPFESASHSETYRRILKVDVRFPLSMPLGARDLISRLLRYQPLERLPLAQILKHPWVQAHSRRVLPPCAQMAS", "chain of UniProt P31749 (whole entry, looked up)": "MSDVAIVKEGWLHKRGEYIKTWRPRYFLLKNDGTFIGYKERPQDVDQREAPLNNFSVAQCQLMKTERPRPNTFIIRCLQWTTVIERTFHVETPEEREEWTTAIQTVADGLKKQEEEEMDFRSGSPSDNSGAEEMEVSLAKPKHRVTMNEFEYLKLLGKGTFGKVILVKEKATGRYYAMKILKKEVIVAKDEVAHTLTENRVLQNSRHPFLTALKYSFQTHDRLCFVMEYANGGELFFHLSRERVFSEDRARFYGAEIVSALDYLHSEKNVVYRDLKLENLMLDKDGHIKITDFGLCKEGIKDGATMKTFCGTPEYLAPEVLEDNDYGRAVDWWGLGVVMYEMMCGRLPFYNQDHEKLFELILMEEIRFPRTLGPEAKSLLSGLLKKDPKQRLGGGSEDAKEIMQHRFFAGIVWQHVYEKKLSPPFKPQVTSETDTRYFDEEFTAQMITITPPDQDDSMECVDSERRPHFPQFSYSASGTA", "chain of UniProt P15056 (whole entry, unmodified, looked up)": "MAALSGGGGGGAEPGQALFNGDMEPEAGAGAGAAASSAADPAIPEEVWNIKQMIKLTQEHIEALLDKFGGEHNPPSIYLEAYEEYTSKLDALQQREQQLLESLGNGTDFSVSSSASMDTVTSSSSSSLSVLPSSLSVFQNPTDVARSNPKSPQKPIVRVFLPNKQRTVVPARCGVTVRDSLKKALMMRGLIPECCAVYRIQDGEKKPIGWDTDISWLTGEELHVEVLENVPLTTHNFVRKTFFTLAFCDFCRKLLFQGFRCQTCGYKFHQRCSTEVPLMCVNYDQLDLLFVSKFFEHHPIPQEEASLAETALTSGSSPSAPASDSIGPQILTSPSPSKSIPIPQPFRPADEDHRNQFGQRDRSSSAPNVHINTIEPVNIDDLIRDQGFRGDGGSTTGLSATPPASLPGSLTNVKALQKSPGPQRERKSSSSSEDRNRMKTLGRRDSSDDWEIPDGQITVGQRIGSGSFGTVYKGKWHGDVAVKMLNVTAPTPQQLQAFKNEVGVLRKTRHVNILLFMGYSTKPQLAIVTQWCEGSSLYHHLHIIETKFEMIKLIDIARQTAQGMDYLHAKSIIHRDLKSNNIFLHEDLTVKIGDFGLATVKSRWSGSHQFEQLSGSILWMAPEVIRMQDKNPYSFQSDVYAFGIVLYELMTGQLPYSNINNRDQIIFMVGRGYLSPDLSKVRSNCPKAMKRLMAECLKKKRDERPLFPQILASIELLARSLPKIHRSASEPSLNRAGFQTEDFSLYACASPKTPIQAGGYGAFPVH", "chain of UniProt Q96RR4 (whole entry, looked up)": "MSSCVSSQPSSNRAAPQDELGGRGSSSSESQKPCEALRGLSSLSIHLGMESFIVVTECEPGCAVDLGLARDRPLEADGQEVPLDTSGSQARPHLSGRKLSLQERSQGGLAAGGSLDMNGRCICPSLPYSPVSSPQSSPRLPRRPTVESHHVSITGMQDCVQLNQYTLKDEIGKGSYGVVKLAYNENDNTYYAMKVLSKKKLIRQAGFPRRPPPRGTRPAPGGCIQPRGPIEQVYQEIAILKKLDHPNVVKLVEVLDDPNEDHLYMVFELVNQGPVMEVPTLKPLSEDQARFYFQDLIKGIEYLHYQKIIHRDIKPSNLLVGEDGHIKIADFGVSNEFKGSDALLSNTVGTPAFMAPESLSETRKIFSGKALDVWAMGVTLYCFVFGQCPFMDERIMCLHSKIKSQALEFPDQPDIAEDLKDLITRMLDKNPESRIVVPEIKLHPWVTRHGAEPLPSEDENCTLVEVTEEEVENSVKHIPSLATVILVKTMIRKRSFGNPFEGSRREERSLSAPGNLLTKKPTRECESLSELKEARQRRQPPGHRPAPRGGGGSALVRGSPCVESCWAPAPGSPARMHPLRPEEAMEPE"}
{"data": "Block 1", "Compound": "Cn1cc(Cl)c2c(Oc3c(F)cc(Nc4cc(Cl)nc(N)n4)cc3F)ccnc21", "observed": "cell-free assay", "method": "competition with immobilised ligand", "concentration": "0.1 µM"}
{"target": "Myotonin-protein kinase (DMPK, Homo sapiens, UniProt Q09013)", "remaining binding [%]": 86}
{"target": "Phosphatidylinositol 4,5-bisphosphate 3-kinase catalytic subunit delta isoform (PIK3CD, Homo sapiens, UniProt O00329)", "remaining binding [%]": 51}
{"target": "Maternal embryonic leucine zipper kinase (MELK, Homo sapiens, UniProt Q14680)", "remaining binding [%]": 89}
{"target": "Calcium/calmodulin-dependent protein kinase kinase 2 (CAMKK2, Homo sapiens, UniProt Q96RR4)", "remaining binding [%]": 99}
{"target": "cAMP-dependent protein kinase catalytic subunit alpha (PRKACA, Homo sapiens, UniProt P17612)", "remaining binding [%]": 90}
{"target": "RAC-alpha serine/threonine-protein kinase (AKT1, Homo sapiens, UniProt P31749)", "remaining binding [%]": 75}
{"target": "Serine/threonine-protein kinase B-raf (BRAF, Homo sapiens, UniProt P15056, V600E)", "remaining binding [%]": 100}
{"target": "Aurora kinase C (AURKC, Homo sapiens, UniProt Q9UQB9)", "remaining binding [%]": 97}
{"target": "Beta-adrenergic receptor kinase 1 (GRK2, Homo sapiens, UniProt P25098)", "remaining binding [%]": 81}
{"target": "Calcium/calmodulin-dependent protein kinase type 1G (CAMK1G, Homo sapiens, UniProt Q96NX5)", "remaining binding [%]": 100}
{"data": "Block 2", "cell line": "mouse MPNST tumor cells", "method": "high-content nuclear imaging", "refers to": "cell number", "concentration": "10 µM", "time": "12 h", "notes": "mean of 2 replicates", "relative to": "plate mean", "direction": "higher = more cells"}
{"Compound": "Clc1ccc2nsnc2c1NC1=NCCN1", "nuclei count": "0.858 z-score and 1.85 z-score"}
{"Compound": "COc1ccccc1C1(O)CCN(CCCn2c3ccccc3c3ccccc32)CC1", "nuclei count": "-6.56 z-score"}
{"Compound": "C[C@@H]1C[C@H]2[C@@H]3C[C@H](F)C4=CC(=O)C=C[C@]4(C)[C@@]3(F)[C@@H](O)C[C@]2(C)[C@@]1(O)C(=O)CO", "nuclei count": "4.02 z-score"}
{"Compound": "CCCCc1ncc(/C=C(\\Cc2cccs2)C(=O)O)n1Cc1ccc(C(=O)O)cc1", "nuclei count": "3.61 z-score"}
{"Compound": "O=[N+]([O-])c1cc(Cl)ccc1S(=O)(=O)N1CCN(Cc2ccccc2)CC1", "nuclei count": "-0.886 z-score"}
{"Compound": "CN(Cc1cc(Br)cc(Br)c1N)C1CCCCC1", "nuclei count": "0.449 z-score"}
{"Compound": "CN1CC2c3ccccc3Oc3ccc(Cl)cc3C2C1 (centres unmarked)", "nuclei count": "3.07 z-score and 2.82 z-score and 1.83 z-score"}
{"Compound": "COc1ccc(CC(=O)NCc2ccccc2-c2ccccc2C(=O)NCc2ccc(F)cc2F)cc1", "nuclei count": "0.204 z-score"}
{"Compound": "CC(C)NCC(O)COc1ccc(COCCOC(C)C)cc1 (centres unmarked)", "nuclei count": "0.596 z-score"}
{"Compound": "CN(C)CCCN1c2ccccc2Sc2ccccc21", "nuclei count": "2.4 z-score"}
{"data": "Block 3", "species": "mouse", "sample": "microsomes or S9", "concentration": "2 µM", "time": "0.5 h"}
{"SMILES": "COc1nn(C)cc1C(=O)N1CCN(c2nccn3nc4c(c23)CCCC4)CC1", "remaining compound [%]": 16.3}
{"SMILES": "CC1(C)Oc2ccc(C#N)cc2[C@@H](NC(=O)c2ccc(F)cc2)[C@@H]1O", "remaining compound [%]": 69.3}
{"SMILES": "CCOC(=O)c1ccc(NC(=O)N(Cc2ccc3c(c2)OCO3)C2CCN(CC)CC2)cc1", "remaining compound [%]": 50.3}
{"SMILES": "O=C(Cn1ccc2c(=O)[nH]ccc21)Nc1ccccc1Br", "remaining compound [%]": 92.4}
{"SMILES": "CC(C)C1(C)SC(NC2CC3CCC2C3)=NC1=O (centres unmarked)", "remaining compound [%]": 65.8}
{"SMILES": "Nc1ncnc2c1cnn2-c1nc2ccccc2s1", "remaining compound [%]": 23.4}
{"SMILES": "COC(=O)C1(C(=O)OC)C(CC(=O)c2ccc(Br)cc2)c2cc(N(C)C)ccc2C(c2ccccc2)N1S(=O)(=O)c1ccc(C)cc1 (centres unmarked)", "remaining compound [%]": 62}
{"data": "Block 4", "target": "Platelet-derived growth factor receptor beta (PDGFRB, Homo sapiens, UniProt P09619)", "observed": "enzyme activity", "action": "inhibitor", "concentration": "0.5 µM", "relative to": "control", "chain of UniProt P09619 (whole entry, looked up)": "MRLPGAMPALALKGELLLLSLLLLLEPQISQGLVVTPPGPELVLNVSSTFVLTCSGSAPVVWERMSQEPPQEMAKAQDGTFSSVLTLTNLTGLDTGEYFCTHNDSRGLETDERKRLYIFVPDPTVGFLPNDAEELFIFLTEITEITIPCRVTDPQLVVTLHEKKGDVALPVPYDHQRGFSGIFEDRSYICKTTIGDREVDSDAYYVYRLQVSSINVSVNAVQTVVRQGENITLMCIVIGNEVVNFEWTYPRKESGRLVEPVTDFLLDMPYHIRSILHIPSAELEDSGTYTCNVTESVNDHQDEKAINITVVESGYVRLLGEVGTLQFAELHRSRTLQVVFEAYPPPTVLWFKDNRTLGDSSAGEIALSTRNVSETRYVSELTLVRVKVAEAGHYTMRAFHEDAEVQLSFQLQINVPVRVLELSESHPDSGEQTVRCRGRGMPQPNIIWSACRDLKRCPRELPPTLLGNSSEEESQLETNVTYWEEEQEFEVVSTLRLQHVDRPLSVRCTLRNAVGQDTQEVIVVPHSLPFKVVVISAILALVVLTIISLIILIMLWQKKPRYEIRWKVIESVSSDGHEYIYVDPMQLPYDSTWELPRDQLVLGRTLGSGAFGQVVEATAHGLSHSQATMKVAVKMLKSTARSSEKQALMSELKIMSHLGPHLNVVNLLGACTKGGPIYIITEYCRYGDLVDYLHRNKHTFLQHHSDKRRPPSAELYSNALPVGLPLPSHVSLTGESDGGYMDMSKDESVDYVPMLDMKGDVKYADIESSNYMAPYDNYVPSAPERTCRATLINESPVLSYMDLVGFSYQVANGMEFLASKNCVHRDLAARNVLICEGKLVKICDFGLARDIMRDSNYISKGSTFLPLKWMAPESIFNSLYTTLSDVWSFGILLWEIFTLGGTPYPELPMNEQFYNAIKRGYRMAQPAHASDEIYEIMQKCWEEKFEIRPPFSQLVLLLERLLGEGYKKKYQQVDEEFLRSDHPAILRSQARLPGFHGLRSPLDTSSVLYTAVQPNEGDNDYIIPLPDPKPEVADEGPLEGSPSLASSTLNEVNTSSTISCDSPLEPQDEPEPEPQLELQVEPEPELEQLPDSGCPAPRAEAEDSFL"}
{"Structure (SMILES)": "Cn1sc(=O)n(Cc2ccccc2)c1=O", "remaining activity": "87.3%"}
{"Structure (SMILES)": "COc1cc2ncnc(Nc3ccc(F)c(Cl)c3)c2cc1OCCCN1CCOCC1", "remaining activity": "93.9%"}
{"Structure (SMILES)": "O=C(O)c1ccc2c3c1cccc3c(=O)n1c3ccccc3nc21", "remaining activity": "107%"}
{"Structure (SMILES)": "O=C(Nc1cccc(Nc2cc(Nc3cccc(C(F)(F)F)c3)ncn2)c1)C1CC1", "remaining activity": "101%"}
{"Structure (SMILES)": "Nc1[nH]nc2nc3ccccc3nc12", "remaining activity": "98.1%"}
{"Structure (SMILES)": "Cc1nc(-c2ccccc2)c(-c2ccncc2)o1", "remaining activity": "109%"}
{"Structure (SMILES)": "Nc1ncnc2n[nH]c(Nc3ccc(F)cc3)c12", "remaining activity": "98%"}
{"Structure (SMILES)": "Cc1ccc(Nc2nccc(N(C)c3ccc4c(C)n(C)nc4c3)n2)cc1S(N)(=O)=O", "remaining activity": "40.4%"}
{"Structure (SMILES)": "O=C1NC(=O)C(c2cn(CCCO)c3ncccc23)=C1c1cnccn1", "remaining activity": "102%"}
{"Structure (SMILES)": "COc1cc2ncnc(Nc3ccc(Oc4ccccc4)cc3)c2cc1OC", "remaining activity": "95.6%"}
{"Structure (SMILES)": "Cc1cccc(-c2[nH]c(C(C)(C)C)nc2-c2ccc3c(c2)OCO3)n1", "remaining activity": "106%"}
{"Structure (SMILES)": "C#Cc1cccc(Nc2ncnc3cc(OCCOC)c(OCCOC)cc23)c1", "remaining activity": "91.1%"}
{"Structure (SMILES)": "O=C(CCCc1ccc(-c2ccccc2F)cc1)Nc1ccc(O)cc1", "remaining activity": "98.2%"}
{"Structure (SMILES)": "O=C1NC(=O)C(c2cn(CCCn3ccnc3)c3ccccc23)=C1Nc1ccccc1", "remaining activity": "76.5%"}
{"note": "Excerpt of the above (block 2):"}
{"Compound": "O=[N+]([O-])c1cc(Cl)ccc1S(=O)(=O)N1CCN(Cc2ccccc2)CC1", "nuclei count": "-0.886 z-score"}
{"Compound": "CN1CC2c3ccccc3Oc3ccc(Cl)cc3C2C1 (centres unmarked)", "nuclei count": "3.07 z-score and 2.82 z-score and 1.83 z-score"}
{"Compound": "CCCCc1ncc(/C=C(\\Cc2cccs2)C(=O)O)n1Cc1ccc(C(=O)O)cc1", "nuclei count": "3.61 z-score"}
{"Compound": "C[C@@H]1C[C@H]2[C@@H]3C[C@H](F)C4=CC(=O)C=C[C@]4(C)[C@@]3(F)[C@@H](O)C[C@]2(C)[C@@]1(O)C(=O)CO", "nuclei count": "4.02 z-score"}
{"Compound": "CN(Cc1cc(Br)cc(Br)c1N)C1CCCCC1", "nuclei count": "0.449 z-score"}
{"Compound": "CN(C)CCCN1c2ccccc2Sc2ccccc21", "nuclei count": "2.4 z-score"}
{"Compound": "Clc1ccc2nsnc2c1NC1=NCCN1", "nuclei count": "0.858 z-score and 1.85 z-score"}
